Measured values of several laboratories.
Lines come from different studies, so protocols differ. Values joined by “and” are separate records of one study, mostly repeats; a detail may differ. ± gives the spread as reported.
CHRM1: Muscarinic acetylcholine receptor M1 (CHRM1, Homo sapiens, UniProt P11229)
Sequence of UniProt P11229 (whole entry, looked up): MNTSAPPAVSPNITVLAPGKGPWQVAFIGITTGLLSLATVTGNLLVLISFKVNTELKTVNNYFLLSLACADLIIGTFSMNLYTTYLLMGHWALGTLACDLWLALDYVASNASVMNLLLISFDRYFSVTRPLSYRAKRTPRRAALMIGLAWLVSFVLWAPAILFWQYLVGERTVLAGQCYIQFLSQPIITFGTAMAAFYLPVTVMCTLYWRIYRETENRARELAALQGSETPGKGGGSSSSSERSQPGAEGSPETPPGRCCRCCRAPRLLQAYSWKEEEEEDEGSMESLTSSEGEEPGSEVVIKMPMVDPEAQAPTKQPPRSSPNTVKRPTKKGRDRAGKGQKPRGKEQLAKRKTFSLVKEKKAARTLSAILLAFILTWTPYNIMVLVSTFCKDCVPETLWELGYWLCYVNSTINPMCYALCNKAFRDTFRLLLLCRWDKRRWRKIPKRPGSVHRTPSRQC

Substance	target or system	test	test system	conditions	how to read	measurement	value
CC[C@H](C)[C@H](NC(=O)[C@H](Cc1ccc(O)cc1)NC(=O)[C@@H](NC(=O)[C@@H](NC(=O)[C@H](CC(C)C)NC(=O)[C@@H](NC(=O)[C@H](CO)NC(=O)[C@H](Cc1ccc(O)cc1)NC(=O)[C@@H](NC(=O)[C@H](CCC(N)=O)NC(=O)CNC(=O)[C@@H](NC(=O)[C@H](CC(C)C)NC(=O)[C@H](CO)NC(=O)[C@H](CC(C)C)NC(=O)[C@H](Cc1ccc(O)cc1)NC(=O)[C@H](CCCNC(=N)N)NC(=O)[C@H](CCC(N)=O)NC(=O)[C@H](CC(C)C)NC(=O)[C@H](CCC(=O)O)NC(=O)[C@H](CCC(N)=O)NC(=O)CNC(=O)CNC(=O)[C@H](CCC(=O)O)NC(=O)[C@H](CCCCN)NC(=O)[C@H](CC(C)C)NC(=O)[C@H](CCCCN)NC(=O)[C@H](C)NC(=O)[C@H](CCCCN)NC(=O)[C@H](CC(C)C)NC(=O)[C@H](CCCCN)NC(=O)[C@@H](N)CCC(=O)O)C(C)C)C(C)C)[C@@H](C)O)C(C)C)[C@@H](C)O)C(=O)N[C@@H](CO)C(=O)N[C@@H](CC(=O)O)C(=O)N[C@@H](Cc1c[nH]c2ccccc12)C(=O)N[C@@H](Cc1c[nH]c2ccccc12)C(=O)N[C@H](C(=O)N[C@@H](CC(C)C)C(=O)NCC(=O)NCC(=O)N[C@@H](CCC(=O)O)C(=O)N[C@@H](CCCCN)C(=O)N[C@@H](CC(C)C)C(=O)N[C@@H](CCCCN)C(=O)N[C@@H](C)C(=O)N[C@@H](CCCCN)C(=O)N[C@@H](CC(C)C)C(=O)N[C@@H](CCCCN)C(=O)N[C@@H](CCC(=O)O)C(=O)O)[C@@H](C)O	–	gel filtration	human plasma	1 h, 37 °C	–	fraction bound to HDL	80.8% and 81%
LHNHYT	–	–	peptide, human polyclonal IgM RF WEAK	concentration not given, 5 µg/mL mAb II-481 coated, added: RF at 50% max binding concentration	–	inhibition	0%
COc1ccc(COc2ccccc2-c2cc(=O)n(C3CCCCC3O)cn2)cc1 (stereo not drawn)	CHRM1	allosteric agonist, IP1 accumulation	CHO-M1 cells	1 µM, unit not given	baseline: maximum ACh response	change in baseline activity	-4.8 ± 3.9
AAEDWCKKGDT	–	–	peptide, human polyclonal IgM RF MCC	concentration not given, 5 µg/mL mAb II-481 coated, added: RF at 50% max binding concentration	–	inhibition	0%
Cc1ccc(COc2ccccc2-c2cc(=O)n(C3CCCCC3O)cn2)cn1 (stereo not drawn)	CHRM1	allosteric agonist, IP1 accumulation	CHO-M1 cells	1 µM, unit not given	baseline: maximum ACh response	change in baseline activity	-13.4 ± 2.9
HIWWNDN	–	–	peptide, human polyclonal IgM RF CLAU	concentration not given, 5 µg/mL mAb II-481 coated, added: RF at 50% max binding concentration	–	inhibition	32%
CC(O)C(C)n1ncn(-c2ccc(N3CCN(c4ccc(OCC5COC(Cn6cncn6)(c6ccc(Cl)cc6Cl)O5)cc4)CC3)cc2)c1=O (stereo not drawn)	–	enzyme activity, inhibitor	mouse kidney homogenate	10 µM, added: 50 nM corticosterone	baseline: mouse over human enzyme	potency ratio	≥ 10 fold
Nc1nc2c(ncn2[C@@H]2O[C@H](COP(=O)(O)OP(=O)(O)OP(=O)(O)OC[C@H]3O[C@@H](n4cnc5c(N)ncnc54)[C@H](O)[C@@H]3O)[C@@H](O)[C@H]2O)c(=O)[nH]1	–	–	rabbit reticulocyte lysate	1 h, luciferase mRNA capped with compound	baseline: m7GpppG-capped mRNA	relative translation efficiency	0.19 ± 0.1
CCn1cc(-c2ccc(COc3ccccc3-c3cc(=O)n(C4CCCCC4O)cn3)cc2)cn1 (stereo not drawn)	CHRM1	positive allosteric modulator, IP1 accumulation	CHO-M1 cells	10 µM, 60 min, 37 °C, added: ACh	baseline: ACh alone, higher = stronger potentiation	ΔpEC50 of ACh	2.6 ± 0.39 log units
CC[C@@H]([C@H](C)O)n1ncn(-c2ccc(N3CCN(c4ccc(OC[C@@H]5CO[C@@](Cn6cncn6)(c6ccc(F)cc6F)C5)cc4)CC3)cc2)c1=O	–	enzyme activity, inhibitor	rat kidney homogenate	10 µM, added: 50 nM corticosterone	baseline: rat over human enzyme	potency ratio	~2 fold
Cn1cc(-c2ccc(COc3ccccc3-c3cc(=O)n(C4CCCCC4O)cn3)cc2)cn1 (stereo not drawn)	CHRM1	positive allosteric modulator, IP1 accumulation	CHO-M1 cells	10 µM, 60 min, 37 °C, added: ACh	baseline: ACh alone, higher = stronger potentiation	ΔpEC50 of ACh	1.28 ± 0.42 log units
CCC(C)n1ncn(-c2ccc(N3CCN(c4ccc(OCC5COC(Cn6cncn6)(c6ccc(Cl)cc6Cl)O5)cc4)CC3)cc2)c1=O (stereo not drawn)	–	enzyme activity, inhibitor	mouse kidney homogenate	10 µM, added: 50 nM corticosterone	baseline: mouse over human enzyme	potency ratio	≥ 10 fold

Some of these lines once more:
Substance	target or system	test	test system	conditions	how to read	measurement	value
CC(O)C(C)n1ncn(-c2ccc(N3CCN(c4ccc(OCC5COC(Cn6cncn6)(c6ccc(Cl)cc6Cl)O5)cc4)CC3)cc2)c1=O (stereo not drawn)	–	enzyme activity, inhibitor	mouse kidney homogenate	10 µM, added: 50 nM corticosterone	baseline: mouse over human enzyme	potency ratio	≥ 10 fold
